Experimental data gathered from unrelated publications.
Parts stem from different laboratories: compare values within a part only.

Block 1 — target: Sox, HMG box (Pigoraptor chileana); technique: Spec-seq; molecule type: double-stranded DNA, one strand shown; sample: in vitro; concentration: not given; notes: whole probe, mean of replicates; reference: not given; direction: lower = stronger binding; measurement: relative binding energy
Residues (chain): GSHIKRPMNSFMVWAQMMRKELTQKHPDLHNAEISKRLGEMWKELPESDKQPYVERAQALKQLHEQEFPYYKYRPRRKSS
GAGTCGTCTCGTCAGCACCATCGGACCGTAGAGCACTCAGGTC: 0.639 ln ratio
GAGTCGTCTCGTCAGCACCGCTGTTCCGTAGAGCACTCAGGTC: -0.612 ln ratio
GAGTCGTCTCGTCAGCACAATGGTTCCGTAGAGCACTCAGGTC: -2.76 ln ratio
GAGTCGTCTCGTCAGCACCATTTTTCCGTAGAGCACTCAGGTC: 0.339 ln ratio

Block 2 — technique: protein binding microarray; molecule type: double-stranded DNA, one strand shown; sample: in vitro; concentration: not given; reference: not given; direction: higher = stronger binding; measurement: E-score
Target: Histone acetyltransferase KAT6A, both winged helices, GST fusion (KAT6A, Homo sapiens, UniProt Q92794, residues 1-181)
Notes: 8-mer, flanks averaged, mean of 2 arrays, mostly near background
Residues (chain): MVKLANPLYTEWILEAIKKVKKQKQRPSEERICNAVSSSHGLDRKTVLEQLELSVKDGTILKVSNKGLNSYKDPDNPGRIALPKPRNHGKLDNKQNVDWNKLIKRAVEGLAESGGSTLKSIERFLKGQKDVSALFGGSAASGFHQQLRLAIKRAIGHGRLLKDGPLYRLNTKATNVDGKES
ACTTGTTG: -0.24
AGAAAACA: -0.124
GTGACATA: -0.0699
ACCTGATA: -0.131

Mixed results
IRF3 S386D/S396D/S398D/S402D/T404D/S405D full length, phosphomimetic: Interferon regulatory factor 3, full length, phosphomimetic (IRF3, Homo sapiens, UniProt Q14653, residues 1-427, S386D/S396D/S398D/S402D/T404D/S405D)
Chain of UniProt Q14653 (whole entry, unmodified, looked up): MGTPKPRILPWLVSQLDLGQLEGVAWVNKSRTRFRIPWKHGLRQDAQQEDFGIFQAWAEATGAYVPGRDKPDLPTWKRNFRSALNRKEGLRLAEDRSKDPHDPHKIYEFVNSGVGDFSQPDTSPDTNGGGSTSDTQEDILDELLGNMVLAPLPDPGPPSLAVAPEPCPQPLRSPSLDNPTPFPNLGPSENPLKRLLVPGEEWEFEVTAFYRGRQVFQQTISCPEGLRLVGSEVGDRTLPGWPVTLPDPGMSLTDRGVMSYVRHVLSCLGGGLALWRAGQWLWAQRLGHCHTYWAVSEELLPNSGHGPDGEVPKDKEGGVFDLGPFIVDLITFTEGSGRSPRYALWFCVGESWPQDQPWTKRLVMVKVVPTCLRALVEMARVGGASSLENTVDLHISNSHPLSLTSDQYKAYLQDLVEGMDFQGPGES
GCCTAGCACGATGATATCGGGACTGGAGACGTGCTAGTCTTGATTCGCTTGACGCTGCTG — fitted relative affinity (IRF3 S386D/S396D/S398D/S402D/T404D/S405D full length, phosphomimetic; protein-binding microarray; double-stranded DNA, one strand shown, in vitro; 2540 nM top, 60-bp whole probe, together with: salmon DNA 0.4 mg/ml; reference: random background probes, higher = stronger binding): -0.233 z-score
PhoQ, residues 284 288 289 292 302 303 SLCLSL — fold induction (PhoP, residues 12 14 15 18 19 SQCLL (Escherichia coli, UniProt P23836); Sort-seq, item: YFP reporter; E. coli; PhoQ-PhoP variant library, together with: 10 µM Mg2+; reference: high Mg2+ state, higher = stronger signaling): 1.32
GCCTAGCACGACGGTAACGGGTTTCGGGACGTGCTAGTCTTGATTCGCTTGACGCTGCTG — fitted relative affinity (IRF3 S386D/S396D/S398D/S402D/T404D/S405D full length, phosphomimetic; protein-binding microarray; double-stranded DNA, one strand shown, in vitro; 2540 nM top, 60-bp whole probe, together with: salmon DNA 0.4 mg/ml; reference: random background probes, higher = stronger binding): 1.23 z-score

Repeated from above (block 1):
GAGTCGTCTCGTCAGCACCGCTGTTCCGTAGAGCACTCAGGTC: -0.612 ln ratio
GAGTCGTCTCGTCAGCACAATGGTTCCGTAGAGCACTCAGGTC: -2.76 ln ratio
